Experimental data pooled from the literature.
Parts stem from different laboratories: compare values within a part only. Several values in a cell are separate wells, animals, samples, runs or records.
UniProt P28335, sequence (whole entry, looked up): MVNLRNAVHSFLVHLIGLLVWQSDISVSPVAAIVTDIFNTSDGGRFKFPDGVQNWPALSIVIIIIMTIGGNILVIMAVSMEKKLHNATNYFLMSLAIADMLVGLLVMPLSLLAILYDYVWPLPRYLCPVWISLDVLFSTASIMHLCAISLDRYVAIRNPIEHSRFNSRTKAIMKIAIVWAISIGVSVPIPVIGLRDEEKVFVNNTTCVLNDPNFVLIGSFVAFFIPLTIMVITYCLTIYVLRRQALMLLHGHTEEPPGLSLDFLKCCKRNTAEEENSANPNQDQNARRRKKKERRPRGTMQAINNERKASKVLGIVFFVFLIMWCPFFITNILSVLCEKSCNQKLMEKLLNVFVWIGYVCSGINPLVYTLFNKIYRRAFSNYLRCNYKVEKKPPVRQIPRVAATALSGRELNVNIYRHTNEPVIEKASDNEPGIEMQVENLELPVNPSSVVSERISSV
UniProt P34969, sequence (whole entry, looked up): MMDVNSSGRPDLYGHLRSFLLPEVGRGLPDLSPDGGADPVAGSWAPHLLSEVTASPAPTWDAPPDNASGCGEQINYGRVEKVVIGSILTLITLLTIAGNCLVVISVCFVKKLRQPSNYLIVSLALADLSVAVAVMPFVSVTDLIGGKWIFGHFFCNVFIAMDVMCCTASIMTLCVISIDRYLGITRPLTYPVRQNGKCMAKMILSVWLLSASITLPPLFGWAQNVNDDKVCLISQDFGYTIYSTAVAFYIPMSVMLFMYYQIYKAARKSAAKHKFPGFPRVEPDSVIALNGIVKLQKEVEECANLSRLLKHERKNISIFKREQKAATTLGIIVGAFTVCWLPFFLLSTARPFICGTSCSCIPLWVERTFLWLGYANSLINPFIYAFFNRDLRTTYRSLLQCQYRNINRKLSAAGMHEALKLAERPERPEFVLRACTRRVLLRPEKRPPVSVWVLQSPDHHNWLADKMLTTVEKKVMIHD

Study 1 — target: chymotrypsin; read-out: enzyme activity; action: inhibitor; tested at: 10 µM; notes: with DTT
Compound	inhibition [%]
O=c1c(O)c(-c2cc(O)c(O)c(O)c2)oc2cc(O)cc(O)c12	3.8
CCOc1cc(C(Nc2cc(C)ccn2)c2ccc3cccnc3c2O)ccc1OC (stereo not drawn)	13.4
O=C(/C=C/c1ccc2ccccc2n1)c1ccncc1	5.3

Study 2 — organism: Vesicular stomatitis virus; read-out: pseudovirus infection; technique: FDA-approved drug library screen; tested at: concentration not given; notes: VSV-G control pseudotype; relative to: vehicle
Structure (SMILES)	GFP-positive cells [%]
NC(N)=O	84.7
Cc1ccc(NC(=O)C2(c3ccc4c(c3)OC(F)(F)O4)CC2)nc1-c1cccc(C(=O)O)c1	120
O=C([O-])c1ccccc1[O-].[Bi+3].[OH-]	119

Single results of other studies
Compound	target	test	conditions	how to read	quantity	result
CCOCCn1cc(C(=O)Nc2ccc(-n3nc(-c4cccnc4)cc3C(F)(F)F)cn2)ccc1=O	HTR2C (Homo sapiens, UniProt P28335)	binding, radioligand binding	10 µM	–	inhibition	3.75%
CN(C(=O)c1ccn2ncc(-c3ccc(C(N)=O)cc3)c2c1)c1ccc(C#N)cn1	C. parvum PI4K Y907A	enzyme activity, inhibitor, ADP-Glo	–	relative to: mutant over wild type	fold IC50 shift	18.2 and 24.5
Cn1cncc1[C@](O)(COc1ccc(C#N)cc1-c1ccc(OC(F)(F)F)cc1)c1ccc(C#N)cc1	HTR7 (Homo sapiens, UniProt P34969)	binding, radioligand binding	10 µM	–	inhibition	9.15%

Some of these lines once more (study 2):
Structure (SMILES)	GFP-positive cells [%]
O=C([O-])c1ccccc1[O-].[Bi+3].[OH-]	119
